Published values gathered from unrelated publications.
A part holds a random share of what one study measured. Substitutions count along the parent as printed.

Series 1 — technique: protein-binding microarray; form: double-stranded DNA, one strand shown; matrix: in vitro; tested at: 2200 nM top; notes: 60-bp whole probe; together with: salmon DNA 0.4 mg/ml; relative to: random background probes; reading: higher = stronger binding; all sequences stand within: GCCTAGCAC … GTCTTGATTCGCTTGACGCTGCTG
Target: Interferon regulatory factor 7, full length, phosphomimetic (IRF7, Homo sapiens, UniProt Q92985, residues 1-503, S471D/S472D/S475D/S476D/S477D/S483D/S484D/S487D)
Chain of UniProt Q92985 (whole entry, unmodified, looked up): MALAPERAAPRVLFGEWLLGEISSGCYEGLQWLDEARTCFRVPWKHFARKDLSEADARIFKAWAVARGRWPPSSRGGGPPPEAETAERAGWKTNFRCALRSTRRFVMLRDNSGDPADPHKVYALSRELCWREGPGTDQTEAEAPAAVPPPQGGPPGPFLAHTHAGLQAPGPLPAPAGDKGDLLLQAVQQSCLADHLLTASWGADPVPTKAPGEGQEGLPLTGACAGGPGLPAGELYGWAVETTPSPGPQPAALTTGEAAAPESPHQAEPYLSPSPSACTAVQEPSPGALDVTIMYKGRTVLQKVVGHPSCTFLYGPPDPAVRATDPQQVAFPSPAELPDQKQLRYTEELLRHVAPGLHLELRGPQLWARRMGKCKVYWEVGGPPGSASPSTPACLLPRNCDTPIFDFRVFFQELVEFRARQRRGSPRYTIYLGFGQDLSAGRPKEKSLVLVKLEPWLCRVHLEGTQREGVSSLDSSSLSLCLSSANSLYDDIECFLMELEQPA
Strand	fitted relative affinity [z-score]
GACGGTTTCCATCTCCTGACGTGCTAG	3.69
TTAGGTATCGGTTTCGGATAGTGCTAG	4.33
GGGTGAATGTGTCTTAAATAGTGCTAG	-0.191
TTAGGACTGAGTCTCGATTAGTGCTAG	-0.357
TTACGTTTCCTTCTCCTTTAGTGCTAG	4.88
GACGGTTCCGGTTTCGAGACGTGCTAG	5.04
GACGGTATCGGTTTCGGGACGTGCTAG	3.92
TTCATTTTGTGTCTGGGCATGTGCTAG	1.31
TCAGGTAGCCTTATCCCTAAGTGCTAG	0.0789
GACGATCTCCTTTTCCTGACGTGCTAG	1.76
GACGGTCTCCTTCTCGTGACGTGCTAG	0.854
GTAGTAATCTTAAGGCTGTCGTGCTAG	-0.221
TCACCTCTGTCATTTTCACTGTGCTAG	2.72
GACTGTTTCGGTTCCGGGACGTGCTAG	8.59
GACGATATCGTGTATCGAGACGTGCTA	0.228
TCATCACTCTAATCTCACACTGTGCTA	0.807
TCAAACATCATTGTCATACTGTGCTAG	0.258
CTAGGACTGGACTATCGGTTAGTGCTA	-0.116
GACGGAATGCTTATCCTGACGTGCTAG	0.415
CACGAACTGAGACTGGAGACGTGCTAG	-0.24

Series 2 — technique: RNA Bind-n-Seq; form: RNA; matrix: in vitro; tested at: 365 nM; relative to: no-protein control; reading: higher = stronger binding
Target: RNA binding protein fox-1 homolog 2, RRM domain, GST-SBP tag (RBFOX2, Homo sapiens, UniProt O43251-10, residues 100-194)
Notes: natural RNA segment, single round, ends assumed
All sequences stand within: GGGAGUUCUACAGUCCGACGAUC … UGGAAUUCUCGGGUGCCAA
Construct (chain): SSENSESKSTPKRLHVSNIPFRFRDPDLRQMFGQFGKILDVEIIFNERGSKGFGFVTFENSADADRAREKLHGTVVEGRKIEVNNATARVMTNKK
Strand	RBNS enrichment (R)
UGCAUGCUGGUACAAUCUCUUAGAAACUCCUAAGAUGGUUUGGGAAAAUACAGUGCAAUUAGUGAUGGCUAAAUACACAGUGCUUGGGAUUCAGUCUGUGUAACAUUUUC	21.5
ACACAGGUGUCCAUCUCCACUCUGUCCCCGGUCUCUGUCCCAGCUCAGGCUGCGUUCUCUAACUCAUACUGUGAAGACAACCGUGUUUUUGAUUAAAAAAAAUAUAUCUA	0.492
UCCUCCGUCCAGCCGCCAUUGCCACCAGGAGAACCACUACAUGCAGCCCAUGCCCACCUGCCCAUCACAGGGUUGGGCCCAGAUCUGGUCCCUUGCAGCUAGUUUUCUAG	0.418
UGAUGCUCACAUAUUCUGUGCCAUGGAGCAGGUUGAAGAUGAAAUAAAAGGUUGUUUGGAUUUUCUACGUACGGUAUAUAGCGUAUUUGGAUUUUCUUUUAAACUAAACC	0.321
AGUGCAUGGAGACCCCUUUAGGCUCAGGGCUGCUCGAGCUCUGACUCUAACCCUGCUCCUUCCUAGCACAGCUCUGCACAUCCAUCUCUCUCUCUUGCUGAAUGCACAUA	1.12
UUUCCCCUCUUCCCUGUCUUCCCCACCUUCCCCCAACUACCCGGGCCUGACCCGGCCCCUACCAGCCACGGGCACAAGACCCCUGCUCCUGACUUAGCCCGUCACCCUUA	0.782
GAGGAUUUUUUUUUCCUUAAGUAAAUCAUUUCAAGUGUAAAAACUAUUUUCUUUUAAUCUGGAUCUUUUGAGGUAAGAAGAUCCACCUUUAGUCAGGGCCACACCUUCUG	0.537
GUCAGGUCCCCGAGUCAUUUCUGUAGUGAAGAGCAGAGUUCCGUGUCUACACUGGCAACUAGGAACUGGGGUGCUCUGCUCCCGUUUGCUCCUGGGAGGGGCGUUCUCCU	0.431
CUUGCGGUGAUAAAUCUUUUUAAAGGCAACUCAGUAUUUUUUAAAGGACAAAAUAAACUGACUGAAGGGUUCGCUACUUCCAGUCACAACCUGUGUAUAGAAGAAAGAAA	0.422
CUCAGUCCCAGCCUCUCCCCUCUACAACUCCUGCCACUGUUGGCCAUGUCGUAAGGCAGCAGCUGUGCCAGGAUAGCUGGGUCCAUUCAGAGCACCUUGAGAAGUGUUGC	1.08
GACAAGGCAGAAAUGAACAUGAAAAGUCCCCAGGAGAGGGGAGCUGUGUAGUGAGGGAUACUGAGGGCAGUCCUGUGGCUGAGGGGCACAGAUUGAACUGCUGAACUAGU	1.66
ACUGUCAAAUGCUGGUAUUGAAUGGGGACUGAGGAUGGGUCUCAGAGAGCAACCUCCUCCCUCGUAGAGGGAGAUUAUAUCCCCAACUCCAGGGACCUCUUUAUCUCAAU	0.256

Series 3 — target: NFE2L2, bZIP domain (human); technique: DHFR protein complementation; matrix: yeast; relative to: wild-type JUN-FOS pair; reading: higher = stronger binding
Notes: single substitutions, most at no-binding floor
Starting sequence: JUN, bZIP domain (human); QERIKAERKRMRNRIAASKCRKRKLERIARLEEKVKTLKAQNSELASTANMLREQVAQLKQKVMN; partner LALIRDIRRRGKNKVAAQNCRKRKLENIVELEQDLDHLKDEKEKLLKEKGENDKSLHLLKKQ
Variant	binding fitness
E33A	-1.41 natural log
L31A	-1.49 natural log
L38F	-1.48 natural log
E44N	-1.53 natural log
K36A	-1.34 natural log
A49M	-1.55 natural log
V56W	-1.53 natural log
L45P	-1.52 natural log
K34Q	-1.51 natural log
I28Y	-1.36 natural log
V56Q	-1.49 natural log

Series 4 — target: CCNB3, cyclin fold, Cln2 fusion (human); technique: yeast growth competition, sequencing; matrix: yeast; notes: weak parent motif; relative to: not given; reading: higher = stronger binding
Starting sequence: INSM1 docking peptide (human); PKAIRKLHFEDEV; partner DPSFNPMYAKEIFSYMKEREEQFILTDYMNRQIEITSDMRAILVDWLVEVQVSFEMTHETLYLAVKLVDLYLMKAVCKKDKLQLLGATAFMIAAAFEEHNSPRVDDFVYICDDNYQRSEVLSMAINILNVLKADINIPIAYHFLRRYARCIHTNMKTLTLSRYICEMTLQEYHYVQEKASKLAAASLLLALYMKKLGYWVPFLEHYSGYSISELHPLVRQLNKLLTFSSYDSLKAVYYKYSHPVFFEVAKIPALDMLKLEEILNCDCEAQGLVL
Variant	normalised enrichment score
PKANRKLHFEDEV [I4N]	0.452
PMAIRKLHFEDEV [K2M]	0.45
PKMIRKLHFEDEV [A3M]	0.42
PKATRKLHFEDEV [I4T]	0.114
PKAICKLHFEDEV [R5C]	0.0786
PKAIRKLHFESEV [D11S]	0.174
PKAIRKLHTEDEV [F9T]	-0.0599
PKAIRKLHFEIEV [D11I]	0.527
PKAIRKLHCEDEV [F9C]	-0.435
PKSIRKLHFEDEV [A3S]	0.0949
PKAIQKLHFEDEV [R5Q]	0.0418
PKAERKLHFEDEV [I4E]	0.021
PKAQRKLHFEDEV [I4Q]	0.0963
PKAIRKLHIEDEV [F9I]	-0.382
PKALRKLHFEDEV [I4L]	0.6
PKAIRKWHFEDEV [L7W]	-0.201
PKAIFKLHFEDEV [R5F]	0.0317
PKAIRKYHFEDEV [L7Y]	-0.0195
PKAIRKLHFEEEV [D11E]	0.284
PKAIRKLSFEDEV [H8S]	0.393
PPAIRKLHFEDEV [K2P]	0.0688
PKAKRKLHFEDEV [I4K]	1.32
PKAIRKLHFEGEV [D11G]	0.347
PKAIRKLHFEDSV [E12S]	0.383
PKAIRKLHFADEV [E10A]	0.205

Series 5 — technique: aptamer microarray, sandwich; form: DNA with 2'F-ANA; matrix: in vitro; tested at: 200 nM; together with: Cy3 exosite-II aptamer, 400 nM; reading: higher = stronger binding; strand: GGTTGGTGTGGTTGG
Target: Prothrombin, mature alpha-thrombin (F2, Homo sapiens, UniProt P00734)
Notes: whole 15-mer aptamer, many near background
Modification	mean fluorescence intensity
2'F-ANA at 1 3 5 8 9 11 14	50.8 a.u.
2'F-ANA at 2 4 5 6 8 9 10 13	46.3 a.u.
2'F-ANA at 1 2 3 4 5 7 10 11 12 13 14	56 a.u.
2'F-ANA at 1 2 3 4 5 6 8 10 11 12 13	52.4 a.u.
2'F-ANA at 1 2 6 7 8 9 10 11 14 15	60.6 a.u.
2'F-ANA at 1 5 6 8 9 11 12 14 15	52.3 a.u.
2'F-ANA at 2 8 9 12 13	563 a.u.
2'F-ANA at 1 2 4 7 8 9 10 13 15	50.7 a.u.
2'F-ANA at 1 4 6 7 11 13	86 a.u.
2'F-ANA at 2 3 6 9 12 13 15	757 a.u.
2'F-ANA at 3 6 9 11 13 14 15	455 a.u.
2'F-ANA at 1 7 9 11 13 14 15	52 a.u.
2'F-ANA at 2 3 4 5 6 7 8 9 11 12 13 14	52.8 a.u.
2'F-ANA at 1 2 3 6 10 11 13 14	79.4 a.u.
2'F-ANA at 1 2 3 4 6 8	182 a.u.
2'F-ANA at 2 9 14 15	149 a.u.
2'F-ANA at 1 2 6 8 12	388 a.u.
2'F-ANA at 5 15	79 a.u.
2'F-ANA at 4 5 6 7 10	44.6 a.u.
2'F-ANA at 3 6 11 12 13 14 15	498 a.u.
2'F-ANA at 1 2 3 4 5 7 8 9 10 11 12 13 14 15	49.1 a.u.
2'F-ANA at 3 7 8 9 12 13 14 15	598 a.u.
2'F-ANA at 1 2 3 6 7 11 12 14	73.1 a.u.
2'F-ANA at 1 2 3 5 7 11 15	55.1 a.u.
2'F-ANA at 2 3 4 7 9 10 11 12 15	298 a.u.

For quick reference, copied from above (series 5):
Modification	mean fluorescence intensity
2'F-ANA at 1 5 6 8 9 11 12 14 15	52.3 a.u.
2'F-ANA at 1 2 3 6 10 11 13 14	79.4 a.u.
2'F-ANA at 1 4 6 7 11 13	86 a.u.
2'F-ANA at 1 7 9 11 13 14 15	52 a.u.
2'F-ANA at 2 3 4 5 6 7 8 9 11 12 13 14	52.8 a.u.
2'F-ANA at 1 2 3 4 5 6 8 10 11 12 13	52.4 a.u.
2'F-ANA at 1 2 4 7 8 9 10 13 15	50.7 a.u.
